{"data": "Measurements collected from several papers", "note": "A part holds a random share of what one study measured.", "UniProt A6PVI3, sequence (21-130, looked up)": "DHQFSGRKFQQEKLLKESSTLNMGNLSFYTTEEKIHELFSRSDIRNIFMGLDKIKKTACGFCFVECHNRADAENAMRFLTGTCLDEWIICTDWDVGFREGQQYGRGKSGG"}
{"data": "Series 1", "target": "Histone acetyltransferase KAT6A, both winged helices, GST fusion (KAT6A, Homo sapiens, UniProt Q92794, residues 1-181)", "method": "protein binding microarray", "form": "double-stranded DNA, one strand shown", "matrix": "in vitro", "tested at": "not given", "notes": "8-mer, flanks averaged, mean of 2 arrays, mostly near background", "reference": "not given", "direction": "higher = stronger binding", "Target sequence (chain)": "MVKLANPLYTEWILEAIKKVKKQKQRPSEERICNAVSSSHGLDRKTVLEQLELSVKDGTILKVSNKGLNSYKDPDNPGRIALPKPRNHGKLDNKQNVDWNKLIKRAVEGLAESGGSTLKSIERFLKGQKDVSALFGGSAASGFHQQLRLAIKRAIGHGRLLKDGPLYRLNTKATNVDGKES"}
{"Oligonucleotide": "CAGAGAAA", "E-score": -0.0457}
{"Oligonucleotide": "GAGCAACA", "E-score": -0.053}
{"Oligonucleotide": "ATTTCCAA", "E-score": -0.162}
{"Oligonucleotide": "TCAAAACA", "E-score": 0.00302}
{"Oligonucleotide": "AGTAACCC", "E-score": 0.00419}
{"Oligonucleotide": "AACAGTGT", "E-score": -0.206}
{"data": "Series 2", "target": "Interferon regulatory factor 7, full length, phosphomimetic (IRF7, Homo sapiens, UniProt Q92985, residues 1-503, S471D/S472D/S475D/S476D/S477D/S483D/S484D/S487D)", "method": "protein-binding microarray", "form": "double-stranded DNA, one strand shown", "matrix": "in vitro", "tested at": "2200 nM top", "notes": "60-bp whole probe", "together with": "salmon DNA 0.4 mg/ml", "reference": "random background probes", "direction": "higher = stronger binding", "all sequences stand within": "GCCTAGCAC … GTCTTGATTCGCTTGACGCTGCTG", "UniProt Q92985, sequence (whole entry, unmodified, looked up)": "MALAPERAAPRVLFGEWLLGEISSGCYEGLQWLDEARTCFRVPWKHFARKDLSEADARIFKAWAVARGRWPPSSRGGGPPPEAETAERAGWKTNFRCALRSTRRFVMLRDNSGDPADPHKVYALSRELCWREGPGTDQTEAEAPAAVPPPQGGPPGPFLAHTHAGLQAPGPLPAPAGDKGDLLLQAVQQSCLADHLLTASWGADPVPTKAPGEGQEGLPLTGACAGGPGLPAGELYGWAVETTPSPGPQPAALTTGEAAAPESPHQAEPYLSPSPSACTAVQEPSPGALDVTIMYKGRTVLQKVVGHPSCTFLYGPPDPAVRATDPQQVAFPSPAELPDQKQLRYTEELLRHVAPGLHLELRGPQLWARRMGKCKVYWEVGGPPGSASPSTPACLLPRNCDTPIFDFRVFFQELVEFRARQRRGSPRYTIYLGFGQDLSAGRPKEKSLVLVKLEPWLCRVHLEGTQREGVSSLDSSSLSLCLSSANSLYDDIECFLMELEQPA"}
{"Oligonucleotide": "TTAGGTATCGGGTATCGGGTAGTGCTA", "fitted relative affinity [z-score]": 0.248}
{"Oligonucleotide": "ATGCTACAATAAGTGTTAGTGTGCTAG", "fitted relative affinity [z-score]": -0.015}
{"Oligonucleotide": "TCTGCTTTGCCTTCAGCCCGGTGCTAG", "fitted relative affinity [z-score]": 0.951}
{"Oligonucleotide": "TTTCCCTAGAAGACGAAAGAGTGCTAG", "fitted relative affinity [z-score]": 1.35}
{"Oligonucleotide": "GACGATTGCAGTATCGAGACGTGCTAG", "fitted relative affinity [z-score]": 0.267}
{"Oligonucleotide": "TTAGGGATCGGTCTCGGTTAGTGCTAG", "fitted relative affinity [z-score]": -0.0939}
{"Oligonucleotide": "GACGATTTCAGGACTGGAGACGTGCTA", "fitted relative affinity [z-score]": 0.265}
{"Oligonucleotide": "GACGGACTGGATTATCGGGACGTGCTA", "fitted relative affinity [z-score]": -0.684}
{"data": "Other studies, line by line"}
{"Substance": "PhoQ, residues 284 288 289 292 302 303 ASHLAV", "target": "PhoP, residues 12 14 15 18 19 VQALL (Escherichia coli, UniProt P23836)", "assay": "Sort-seq, refers to: YFP reporter", "system": "E. coli", "setting": "PhoQ-PhoP variant library, together with: 10 µM Mg2+", "how to read": "reference: high Mg2+ state, higher = stronger signaling", "endpoint": "fold induction", "result": 6.96}
{"Substance": "AAAAAAAA (biotin)", "target": "Nuclear cap-binding protein subunit 2-like, RRM domain (NCBP2L, Homo sapiens, UniProt A6PVI3, residues 21-130)", "assay": "protein domain microarray", "system": "RNA, in vitro", "setting": "not given, poly(A) 8-mer RNA, whole probe, immobilized GST-fusion domains, most near background", "how to read": "reference: GST loading signal, higher = stronger binding", "endpoint": "signal ratio", "result": 0.0376}
{"note": "Excerpt of the above (series 2):"}
{"Oligonucleotide": "TTTCCCTAGAAGACGAAAGAGTGCTAG", "fitted relative affinity [z-score]": 1.35}
